# Measured values gathered from unrelated publications.
# Protocols differ between the studies behind these lines.
# Method: steady-state kinetics
# B1: SULT1B1 E275K/K266E (Homo sapiens, UniProt O43704); chain 1 MLSPKDILRKDLKLVHGYPMTCAFASNWEKIEQFHSRPDDIVIATYPKSGTTWVSEIIDMILNDGDIEKCKRGFITEKVPMLEMTLPGLRTSGIEQLEKNPSPRIVKTHLPTDLLPKSFWENNCKMIYLARNAKDVSVSYYHFDLMNNLQPFPGTWEEYLEKFLTGKVAYGSWFTHVKNWWKKKEEHPILFLYYEDMKENPKEEIKKIIRFLEKNLNDEILDRIIHHTSFEVMKDNPLVNYTHLPTTVMDHSKSPFMRKGTAGDWENYFTVAQNEKFDAIYETEMSKTALQFRTEI; chain 2 MLSPKDILRKDLKLVHGYPMTCAFASNWEKIEQFHSRPDDIVIATYPKSGTTWVSEIIDMILNDGDIEKCKRGFITEKVPMLEMTLPGLRTSGIEQLEKNPSPRIVKTHLPTDLLPKSFWENNCKMIYLARNAKDVSVSYYHFDLMNNLQPFPGTWEEYLEKFLTGKVAYGSWFTHVKNWWKKKEEHPILFLYYEDMKENPKEEIKKIIRFLEKNLNDEILDRIIHHTSFEVMKDNPLVNYTHLPTTVMDHSKSPFMRKGTAGDWKNYFTVAQNKKFDAIYETEMSKTALQFRTEI
# B2: TylM1 H123A (Streptomyces fradiae, UniProt P95748); chain MAHSSATAGPQADYSGEIAELYDLVHQGKGKDYHREAADLAALVRRHSPKAASLLDVACGTGMHLRHLADSFGTVEGLELSADMLAIARRRNPDAVLHHGDMRDFSLGRRFSAVTCMFSSIGALAGQAELDAALERFAAHVLPDGVVVVEPWWFPENFTPGYVAAGTVEAGGTTVTRVSHSSREGEATRIEVHYLVAGPDRGITHHEESHRITLFTREQYERAFTAAGLSVEFMPGGPSGRGLFTGLPGAKGETR
# B3: UGT1A9 (Homo sapiens, UniProt O60656); chain GKLLVVPMDGSHWFTMRSVVEKLILRGHEVVVVMPEVSWQLGRSLNCTVKTYSTSYTLEDLDREFKAFAHAQWKAQVRSIYSLLMGSYNDIFDLFFSNCRSLFKDKKLVEYLKESSFDAVFLDPFDNCGLIVAKYFSLPSVVFARGILCHYLEEGAQCPAPLSYVPRILLGFSDAMTFKERVRNHIMHLEEHLLCHRFFKNALEIASEILQTPVTEYDLYSHTSIWLLRTDFVLDYPKPVMPNMIFIGGINCHQGKPLPMEFEAYINASGEHGIVVFSLGSMVSEIPEKKAMAIADALGKIPQTVLWRYTGTRPSNLANNTILVKWLPQNDLLGHPMTRAFITHAGSHGVYESICNGVPMVMMPLFGDQMDNAKRMETKGAGVTLNVLEMTSEDLENALKAVINDKSYKENIMRLSSLHKDRPVEPLDLAVFWVEFVMRHKGAPHLRPAAHDLTWYQYHSLDVIGFLLAVVLTVAFITFKCCAYGYRKCLGKKGRVKKAHKSKTH
# B4: PRP43 F357A (Saccharomyces cerevisiae, UniProt P53131); chain MGSKRRFSSEHPDPVETSIPEQAAEIAEELSKQHPLPSEEPLVHHDAGEFKGLQRHHTSAEEAQKLEDGKINPFTGREFTPKYVDILKIRRELPVHAQRDEFLKLYQNNQIMVFVGETGSGKTTQIPQFVLFDEMPHLENTQVACTQPRRVAAMSVAQRVAEEMDVKLGEEVGYSIRFENKTSNKTILKYMTDGMLLREAMEDHDLSRYSCIILDEAHERTLATDILMGLLKQVVKRRPDLKIIIMSATLDAEKFQRYFNDAPLLAVPGRTYPVELYYTPEFQRDYLDSAIRTVLQIHATEEAGDILLFLTGEDEIEDAVRKISLEGDQLVREEGCGPLSVYPLYGSLPPHQQQRIAEPAPESHNGRPGRKVVISTNIAETSLTIDGIVYVVDPGFSKQKVYNPRIRVESLLVSPISKASAQQRAGRAGRTRPGKCFRLYTEEAFQKELIEQSYPEILRSNLSSTVLELKKLGIDDLVHFDFMDPPAPETMMRALEELNYLACLDDEGNLTPLGRLASQFPLDPMLAVMLIGSFEFQCSQEILTIVAMLSVPNVFIRPTKDKKRADDAKNIFAHPDGDHITLLNVYHAFKSDEAYEYGIHKWCRDHYLNYRSLSAADNIRSQLERLMNRYNLELNTTDYESPKYFDNIRKALASGFFMQVAKKRSGAKGYITVKDNQDVLIHPSTVLGHDAEWVIYNEFVLTSKNYIRTVTSVRPEWLIEIAPAYYDLSNFQKGDVKLSLERIKEKVDRLNELKQGKNKKKSKHSKK
# B5: cyc1 F332A (Streptomyces coelicolor, UniProt Q9K499); chain MHAFPHGTTATPTAIAVPPSLRLPVIEAAFPRQLHPYWPKLQETTRTWLLEKRLMPADKVEEYADGLCYTDLMAGYYLGAPDEVLQAIADYSAWFFVWDDRHDRDIVHGRAGAWRRLRGLLHTALDSPGDHLHHEDTLVAGFADSVRRLYAFLPATWNARFARHFHTVIEAYDREFHNRTRGIVPGVEEYLELRRLTFAHWIWTDLLEPSSGCELPDAVRKHPAYRRAALLSQEFAAWYNDLCSLPKEIAGDEVHNLGISLITHHSLTLEEAIGEVRRRVEECITEFLAVERDALRFADELADGTVRGKELSGAVRANVGNMRNWFSSVYWAHHESGRYMVDSWDDRSTPPYVNNEAAGEK
# B6: sacB S173T (Priestia megaterium, UniProt D5DC07); chain KGNDSKDFNNSYGISHITRDNMVKIPQQQNSDQFKVPAFDESTIKNIASAKGKNASGNTIDLDVWDSWPLQNADGTVATYHGYQIVFALAGDPKDSNDTSVYLFYKKAGDKSIDSWKNAGRVFKDSDKFVPNDPHLKNQTQEWTGSGTLTKDGKVRLFYTDYSGKQYGKQTLTTAQVNMSQPNDNTLKVDGVEDYKSIFDGDGKIYQTVQQFIDEGGYDTGDNHTLRDPHYIEDNGHKYLVFEANTGTEDGYQGEDSLYNRAYYGGNNPFFQSEKKKLLEGSNKEKASLANGALGIIELNDDYTLKKVMKPLITSNTVTDEIERANIFKKDGKWYLFTDSRGSKMTIDGIGQDDVYMLGYVSNTLTGKYKPLNDTGLVLHMDLDPNDKTFTYSHFAVPQTKGDNVVITSYMTNRGFYEDNHSTFAPSFLVNIDGSKTSVVKDRVLEQGQLTVDED
# B7: carbamoyl phosphate synthetase large subunit M378E (Escherichia coli, UniProt P00968); chain PKRTDIKSILILGAGPIVIGQACEFDYSGAQACKALREEGYRVILVNSNPATIMTDPEMADATYIEPIHWEVVRKIIEKERPDAVLPTMGGQTALNCALELERQGVLEEFGVTMIGATADAIDKAEDRRRFDVAMKKIGLETARSGIAHTMEEALAVAADVGFPCIIRPSFTMGGSGGGIAYNREEFEEICARGLDLSPTKELLIDESLIGWKEYEMEVVRDKNDNCIIVCSIENFDAMGIHTGDSITVAPAQTLTDKEYQIMRNASMAVLREIGVETGGSNVQFAVNPKNGRLIVIEMNPRVSRSSALASKATGFPIAKVAAKLAVGYTLDELMNDITGGRTPASFEPSIDYVVTKIPRFNFEKFAGANDRLTTQEKSVGEVMAIGRTQQESLQKALRGLEVGATGFDPKVSLDDPEALTKIRRELKDAGADRIWYIADAFRAGLSVDGVFNLTNIDRWFLVQIEELVRLEEKVAEVGITGLNADFLRQLKRKGFADARLAKLAGVREAEIRKLRDQYDLHPVYKRVDTCAAEFATDTAYMYSTYEEECEANPSTDREKIMVLGGGPNRIGQGIEFDYCCVHASLALREDGYETIMVNCNPETVSTDYDTSDRLYFEPVTLEDVLEIVRIEKPKGVIVQYGGQTPLKLARALEAAGVPVIGTSPDAIDRAEDRERFQHAVERLKLKQPANATVTAIEMAVEKAKEIGYPLVVRPSYVLGGRAMEIVYDEADLRRYFQTAVSVSNDAPVLLDHFLDDAVEVDVDAICDGEMVLIGGIMEHIEQAGVHSGDSACSLPAYTLSQEIQDVMRQQVQKLAFELQVRGLMNVQFAVKNNEVYLIEVNPRAARTVPFVSKATGVPLAKVAARVMAGKSLAEQGVTKEVIPPYYSVKEVVLPFNKFPGVDPLLGPEMRSTGEVMGVGRTFAEAFAKAQLGSNSTMKKHGRALLSVREGDKERVVDLAAKLLKQGFELDATHGTAIVLGEAGINPRLVNKVHEGRPHIQDRIKNGEYTYIINTTSGRRAIEDSRVIRRSALQYKVHYDTTLNGGFATAMALNADATEKVISVQEMHAQIK
# B8: BaiA2 (Clostridium scindens, UniProt P19337); chain MNLVQDKVTIITGGTRGIGFAAAKIFIDNGAKVSIFGETQEEVDTALAQLKELYPEEEVLGFAPDLTSRDAVMAAVGQVAQKYGRLDVMINNAGITSNNVFSRVSEEEFKHIMDINVTGVFNGAWCAYQCMKDAKKGVIINTASVTGIFGSLSGVGYPASKASVIGLTHGLGREIIRKNIRVVGVAPGVVNTDMTNGNPPEIMEGYLKALPMKRMLEPEEIANVYLFLASDLASGITATTVSVDGAYRP
# Sequence of UniProt P10724 (whole entry, looked up): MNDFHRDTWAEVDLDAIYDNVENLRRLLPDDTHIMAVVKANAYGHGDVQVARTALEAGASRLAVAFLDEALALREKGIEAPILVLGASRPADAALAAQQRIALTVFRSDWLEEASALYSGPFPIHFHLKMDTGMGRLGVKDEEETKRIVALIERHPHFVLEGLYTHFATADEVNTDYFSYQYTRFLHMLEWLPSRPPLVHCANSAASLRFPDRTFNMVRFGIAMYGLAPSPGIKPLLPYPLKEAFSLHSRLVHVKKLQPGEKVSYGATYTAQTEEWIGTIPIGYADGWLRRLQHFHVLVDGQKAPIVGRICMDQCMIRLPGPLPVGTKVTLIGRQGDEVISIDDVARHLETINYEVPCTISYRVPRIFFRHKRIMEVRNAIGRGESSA
# Sequence of UniProt P40308 (whole entry, looked up): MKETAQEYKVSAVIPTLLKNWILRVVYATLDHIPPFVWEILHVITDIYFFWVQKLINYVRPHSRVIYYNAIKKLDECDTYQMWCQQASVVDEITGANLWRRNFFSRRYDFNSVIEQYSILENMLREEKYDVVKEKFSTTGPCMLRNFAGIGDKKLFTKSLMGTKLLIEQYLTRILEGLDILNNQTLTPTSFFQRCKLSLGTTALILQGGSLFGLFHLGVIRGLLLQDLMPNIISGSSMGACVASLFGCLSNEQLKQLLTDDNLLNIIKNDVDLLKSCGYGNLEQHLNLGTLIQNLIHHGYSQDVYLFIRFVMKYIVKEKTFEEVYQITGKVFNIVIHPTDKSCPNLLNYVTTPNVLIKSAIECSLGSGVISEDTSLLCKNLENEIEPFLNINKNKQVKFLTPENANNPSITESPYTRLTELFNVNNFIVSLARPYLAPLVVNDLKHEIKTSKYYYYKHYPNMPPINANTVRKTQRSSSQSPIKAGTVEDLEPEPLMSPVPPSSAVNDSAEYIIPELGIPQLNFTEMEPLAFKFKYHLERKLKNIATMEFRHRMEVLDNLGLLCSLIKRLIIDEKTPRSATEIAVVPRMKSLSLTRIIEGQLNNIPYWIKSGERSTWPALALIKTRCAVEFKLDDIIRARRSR
# Sequence of UniProt D2D3B2 (whole entry, looked up): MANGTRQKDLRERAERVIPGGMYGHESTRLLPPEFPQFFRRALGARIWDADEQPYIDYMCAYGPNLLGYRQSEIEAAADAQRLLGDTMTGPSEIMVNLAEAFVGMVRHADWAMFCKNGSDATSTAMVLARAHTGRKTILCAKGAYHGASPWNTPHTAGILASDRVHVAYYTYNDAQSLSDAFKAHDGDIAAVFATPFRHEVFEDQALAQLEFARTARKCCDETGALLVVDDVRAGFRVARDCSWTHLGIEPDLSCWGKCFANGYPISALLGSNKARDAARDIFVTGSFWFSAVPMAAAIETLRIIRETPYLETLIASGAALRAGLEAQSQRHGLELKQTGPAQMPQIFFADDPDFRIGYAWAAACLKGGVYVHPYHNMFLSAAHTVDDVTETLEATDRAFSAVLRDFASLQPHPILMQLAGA
Molecule,substrate,pH,temperature,notes,added,quantity,value
"protein (Lodderomyces parapsilosis, UniProt G8BA04)",CC(=O)C(=O)O,pH 7.5,25 °C,apparent,"methylamine 50 mM, NADPH 0.2 mM",Km,15000 µM
B1 (SULT1B1 E275K/K266E),Nc1ncnc2c1ncn2[C@@H]1O[C@H](COP(=O)(O)OS(=O)(=O)O)[C@@H](OP(=O)(O)O)[C@H]1O,pH 7.4,37 °C,,1-naphthol,Km,1.9 µM
B2 (TylM1 H123A),Cc1cn([C@H]2C[C@H](O)[C@@H](COP(=O)(O)OP(=O)(O)O[C@H]3O[C@H](C)[C@@H](O)[C@H](N)[C@H]3O)O2)c(=O)[nH]c1=O,,25 °C,,SAM,Km,670 µM
B3 (UGT1A9),COc1cc2c(=O)c(-c3ccccc3)coc2cc1O,pH 7.4,37 °C,,,Vmax,0.00114 µmol/min/mg
"protein (Candidatus Protochlamydia amoebophila, UniProt Q6MEN4)",Nc1nc2c(ncn2[C@@H]2O[C@H](COP(=O)(O)OP(=O)(O)OP(=O)(O)O)[C@@H](O)[C@H]2O)c(=O)[nH]1,pH 7,30 °C,"transporter, labelled substrate, apparent, not purified",,Km,156 µM
B4 (PRP43 F357A),Nc1ccn([C@@H]2O[C@H](COP(=O)(O)OP(=O)(O)OP(=O)(O)O)[C@@H](O)[C@H]2O)c(=O)n1,pH 8,,"KCl 100 mM, without Pfa1","polyA 0.2 mM, magnesium acetate 2.5 mM",Km,175 µM
"protein (Cecembia lonarensis, UniProt K1KZY4)",O=[N+]([O-])c1ccc(O[C@@H]2OC[C@H](O)[C@@H](O)[C@@H]2O)cc1,pH 5.5,35 °C,substrate inhibition,,Km,4130 µM
B5 (cyc1 F332A),CC(C)=CCC/C(C)=C/CC/C(C)=C/CO[P@@](=O)(O)OP(=O)(O)O,pH 6.5,30 °C,,MgCl2 10 mM,Km,0.36 µM
B6 (sacB S173T),OC[C@H]1O[C@@](CO)(O[C@H]2O[C@H](CO)[C@@H](O)[C@H](O)[C@H]2O)[C@@H](O)[C@@H]1O,pH 6.6,,,,Km,41800 µM
"TGL3 (Saccharomyces cerevisiae, UniProt P40308)",CCCCCCCC/C=C\CCCCCCCC(=O)SCCNC(=O)CCNC(=O)[C@H](O)C(C)(C)COP(=O)(O)OP(=O)(O)OC[C@H]1O[C@@H](n2cnc3c(N)ncnc32)[C@H](O)[C@@H]1OP(=O)(O)O,pH 7.5,30 °C,,LPE,Km,18 µM
B7,Nc1ncnc2c1ncn2[C@@H]1O[C@H](COP(=O)(O)OP(=O)(O)OP(=O)(O)O)[C@@H](O)[C@H]1O,pH 7.6,,KCl 100 mM,"glutamine 10 mM, ornithine 10 mM",Km,160 µM
B8 (BaiA2),C[C@H](CCC(=O)SCCNC(=O)CCNC(=O)[C@H](O)C(C)(C)COP(=O)(O)OP(=O)(O)OC[C@H]1O[C@@H](n2cnc3c(N)ncnc32)[C@H](O)[C@@H]1OP(=O)(O)O)[C@H]1CC[C@H]2[C@@H]3CC[C@@H]4CC(=O)CC[C@]4(C)[C@H]3CC[C@]12C,pH 8.7,37 °C,,NADH,Km,1.3 µM
"enzyme (Salvia miltiorrhiza, UniProt A0A4Y5RRG0)",Oc1cc(O)c2c(c1)O[C@H](c1ccc(O)c(O)c1)[C@H](O)[C@H]2c1c(O)cc(O)c2c1O[C@H](c1ccc(O)c(O)c1)[C@H](O)C2,pH 5,28 °C,,,Km,18.2 µM
"alanine racemase (Geobacillus stearothermophilus, UniProt P10724)",C[C@@H](N)C(=O)O,pH 9,room temperature,,NAD+ 10 mM,Km,2200 µM
"enzyme (Sphingopyxis macrogoltabida, UniProt D2D3B2)",O=C(O)CC(=O)C(=O)O,pH 7.4,25 °C,,,Km,4150 µM
